Published values collected from several papers.
Every numbered part comes from another study and shows a few of its results, in no order. Values joined by “and” are separate records of one study, mostly repeats; a detail may differ.
Sequence of UniProt Q13523 (whole entry, looked up): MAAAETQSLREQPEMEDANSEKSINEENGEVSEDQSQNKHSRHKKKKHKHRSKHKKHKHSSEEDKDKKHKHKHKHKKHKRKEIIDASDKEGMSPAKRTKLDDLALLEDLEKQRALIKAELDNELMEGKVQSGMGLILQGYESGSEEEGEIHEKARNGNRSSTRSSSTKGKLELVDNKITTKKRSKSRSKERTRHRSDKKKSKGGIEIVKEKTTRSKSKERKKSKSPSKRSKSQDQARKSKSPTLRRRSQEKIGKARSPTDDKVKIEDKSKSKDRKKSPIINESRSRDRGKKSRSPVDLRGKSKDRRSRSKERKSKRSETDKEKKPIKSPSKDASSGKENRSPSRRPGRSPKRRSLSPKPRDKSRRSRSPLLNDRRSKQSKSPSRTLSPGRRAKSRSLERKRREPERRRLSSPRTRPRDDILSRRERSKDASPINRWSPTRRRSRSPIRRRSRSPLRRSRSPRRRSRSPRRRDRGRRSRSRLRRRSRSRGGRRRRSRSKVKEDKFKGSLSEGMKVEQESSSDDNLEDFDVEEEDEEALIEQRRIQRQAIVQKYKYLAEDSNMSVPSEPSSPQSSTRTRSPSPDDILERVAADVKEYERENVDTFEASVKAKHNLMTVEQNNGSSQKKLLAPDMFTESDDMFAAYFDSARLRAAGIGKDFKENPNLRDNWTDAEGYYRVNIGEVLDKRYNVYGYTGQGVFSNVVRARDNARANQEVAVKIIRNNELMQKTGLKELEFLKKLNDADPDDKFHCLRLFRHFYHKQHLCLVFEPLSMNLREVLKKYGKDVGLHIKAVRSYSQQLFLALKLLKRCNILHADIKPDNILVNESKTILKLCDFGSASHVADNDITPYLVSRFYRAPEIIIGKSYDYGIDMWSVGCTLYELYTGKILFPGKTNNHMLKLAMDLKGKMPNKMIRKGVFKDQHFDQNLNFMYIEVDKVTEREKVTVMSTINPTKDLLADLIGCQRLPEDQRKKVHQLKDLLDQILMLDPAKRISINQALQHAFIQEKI

Sample 1 — effect on: ligand displacement; technique: radioligand; tested at: 10 µM
Target: 5-hydroxytryptamine receptor 1E (HTR1E, Homo sapiens, UniProt P28566)
Sequence of UniProt P28566 (whole entry, looked up): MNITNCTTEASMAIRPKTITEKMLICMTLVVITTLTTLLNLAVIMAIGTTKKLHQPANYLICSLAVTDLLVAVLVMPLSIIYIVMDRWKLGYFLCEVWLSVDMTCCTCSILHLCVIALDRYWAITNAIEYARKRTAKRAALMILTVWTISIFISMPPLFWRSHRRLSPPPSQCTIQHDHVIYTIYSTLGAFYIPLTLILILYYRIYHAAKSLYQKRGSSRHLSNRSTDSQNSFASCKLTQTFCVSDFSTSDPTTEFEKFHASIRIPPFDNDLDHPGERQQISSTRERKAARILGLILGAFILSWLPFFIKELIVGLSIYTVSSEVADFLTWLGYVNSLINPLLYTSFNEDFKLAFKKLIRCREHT
SMILES	inhibition [%]
Cc1c[nH]c2nccc(Oc3c(F)cc(Nc4cc(Cl)nc(N)n4)cc3F)c12	-31.2
O=C1NC(c2ccccn2)Sc2ccccc21 (stereo not drawn)	-0.383
CCS(=O)(=O)c1cc2cc(C[C@](O)(CC(C)(C)c3ccc(F)cc3C(N)=O)C(F)(F)F)[nH]c2cn1	4.75
N#Cc1ccc(Nc2ccc3[nH]c(=O)[nH]c3c2)c(Cl)c1	12.6
C[C@@H]1CN(c2cc(-c3nn(C)c4ccc(OC5(C)CC5)cc34)ncn2)C[C@H](C)O1	-0.18
CNC(=O)Nc1ccc2c(c1)C1(CC2)OC(=O)N(CC(=O)N(Cc2ccc(F)cc2)[C@@H](C)C(F)(F)F)C1=O (single isomer, unassigned)	0.33
CN(C)C(=O)Cn1cc(-c2nc(C3(c4ccc(-c5cnc(N)nc5)cc4)CC3)no2)cn1	-7.33
CN(C)CC#Cc1ccc(OCCCc2sc(N3CCc4cccc(C(=O)Nc5nc6ccccc6s5)c4C3)nc2C(=O)O)c(F)c1	-4.32
CCC(=N\O)/C(C)=C/c1ccc(F)cc1	6.66
O=c1nc(-c2ccccn2)sc2ccccc12	-1.13
Cc1ccc(-c2cnc([C@@]3(O)CC[C@H](C(=O)O)C(C)(C)C3)s2)cc1Nc1cccc(C(F)(F)F)n1	-12
O=S(=O)(NC1CCC(c2cc(F)ccc2F)(S(=O)(=O)c2ccc(Cl)cc2)CC1)C(F)(F)F (stereo not drawn)	-8.31
COc1ccc2cc(OCC3(C(=O)O)CN(C(=O)c4ccc(F)cc4)C3)ccc2c1	11
CC(=O)N1CCC(c2ccc(C(=O)NC(=N)N)cc2C(F)(F)F)CC1	-9.59
CC1=C(C#N)[C@@H](c2ccc3[nH]nc(C)c3c2)C(C#N)=C(c2ccc(Cl)cc2)N1	-3.84
Cc1c(NC(=O)c2cc(C(N)=O)nc3cc(F)ccc23)c(C(F)(F)F)nn1Cc1ccc(C(C)(C)C)cc1	7.98
O=C(Nc1cccnn1)N1CCC(=Cc2cccc(Oc3ccc(C(F)(F)F)cn3)c2)CC1	19
O=C(N[C@H]1CCCCC/C=C\C2C[C@@]2(C(=O)O)NC(=O)[C@@H]2C[C@@H](Oc3ccncc3)CN2C1=O)OC1CCCC1 (stereo partly drawn)	0
O=C(NCc1ncc(C(F)(F)F)cc1Cl)c1ccc2c(c1)C1(CCS(=O)(=O)CC1)[C@H](C1CC1)N2S(=O)(=O)c1ccc(F)cc1	10.4
CCOC(=O)c1cc2cc(-c3cc(C(=O)NCc4ccc(C(=O)O)cc4)nn3C)ccc2[nH]1	6.37

Sample 2 — technique: competitive binding panel; tested at: 1 µM; baseline: vehicle
SMILES: COc1ccc2[nH]c3c4[nH]c5ccc(OC)cc5c4c4c(c3c2c1)C(=O)NC4=O
target	measured	remaining binding [%]
GRK4 (Homo sapiens, UniProt P32298)	–	100
ULK1 (Homo sapiens, UniProt O75385)	–	100
PRPF4B (Homo sapiens, UniProt Q13523)	PRP4	97
PAK6 (Homo sapiens, UniProt Q9NQU5)	–	100
EPHA4 (Homo sapiens, UniProt P54764)	–	86
FGFR1 (Homo sapiens, UniProt P11362)	–	100
GRK7 (Homo sapiens, UniProt Q8WTQ7)	–	64
TRPM6 (Homo sapiens, UniProt Q9BX84)	–	79
MYLK2 (Homo sapiens, UniProt Q9H1R3)	–	82

Sample 3 — effect on: enzyme activity; action: inhibitor; tested at: 0.5 µM; baseline: control
Target: Serine/threonine-protein kinase Nek11 (NEK11, Homo sapiens, UniProt Q8NG66)
Sequence of UniProt Q8NG66 (whole entry, looked up): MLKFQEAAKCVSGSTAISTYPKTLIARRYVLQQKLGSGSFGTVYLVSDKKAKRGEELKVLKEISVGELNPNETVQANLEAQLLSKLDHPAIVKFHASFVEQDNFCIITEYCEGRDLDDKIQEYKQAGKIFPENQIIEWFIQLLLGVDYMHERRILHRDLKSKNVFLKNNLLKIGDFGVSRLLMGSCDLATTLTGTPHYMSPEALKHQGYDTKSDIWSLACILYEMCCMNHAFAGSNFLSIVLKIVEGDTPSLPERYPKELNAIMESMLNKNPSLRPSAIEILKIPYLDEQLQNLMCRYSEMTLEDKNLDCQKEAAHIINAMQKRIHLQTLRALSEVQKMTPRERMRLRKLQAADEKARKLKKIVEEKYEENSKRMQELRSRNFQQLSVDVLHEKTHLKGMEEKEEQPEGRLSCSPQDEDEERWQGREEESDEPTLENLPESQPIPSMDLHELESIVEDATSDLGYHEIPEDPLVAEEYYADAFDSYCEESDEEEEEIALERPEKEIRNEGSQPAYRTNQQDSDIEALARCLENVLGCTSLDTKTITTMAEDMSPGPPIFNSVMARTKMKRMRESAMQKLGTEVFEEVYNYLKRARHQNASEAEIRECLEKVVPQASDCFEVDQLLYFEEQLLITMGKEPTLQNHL
Structure (SMILES)	remaining activity [%]
CN([C@@H](Cc1ccc(OS(=O)(=O)c2cccc3cnccc23)cc1)C(=O)N1CCN(c2ccccc2)CC1)S(=O)(=O)c1cccc2cnccc12	103
CCN(CC)CCNC(=O)c1c(C)[nH]c(/C=C2\C(=O)Nc3ccc(Cl)cc32)c1C	83.4
Ic1cccc(CSc2nnc(-c3ccncc3)o2)c1	113
N#C/C(=C\c1ccc(O)c(O)c1)C(=O)NCc1ccccc1	95.4
COc1cc2c(cc1OC)-c1[nH]nc(Nc3cccc(F)c3)c1C2	98.9
CN(C)C[C@H]1CCn2c(c(C3=C(c4cn(C)c5ccccc45)C(=O)NC3=O)c3ccccc32)C1	74.1
c1ccc(-c2cnc(Nc3ccc(OCCN4CCCC4)cc3)s2)cc1	95
O=c1cc(-c2cccc3c2Sc2ccccc2S3)oc(N2CCOCC2)c1	88.5
N#Cc1c(NC(=O)c2cccc3ccccc23)sc2c1CCCC2	105
O=C(Nc1cccc(Nc2nccc(Nc3cccc(C(F)(F)F)c3)n2)c1)C1CC1	102
Nc1cccc(-c2cc3c(Oc4cccc(O)c4)ncnc3[nH]2)c1	89.6
CCN(CC)CCNC(=O)c1c(C)[nH]c(/C=C2\C(=O)Nc3ccc(F)cc32)c1C	106
Cn1nc2c3c(cccc31)C(=O)c1ccccc1-2	105
COc1cc2ncnc(Nc3cccc(Cl)c3)c2cc1OC	96.9
c1ccc(-c2[nH]ncc2-c2ccnc3ccccc23)nc1	91.8
O=C1C(Cl)=C(N2C(=O)CCC2=O)C(=O)c2ccccc21	101
O=C(NC(NC(=S)Nc1ccc(F)c([N+](=O)[O-])c1)C(Cl)(Cl)Cl)C(c1ccccc1)c1ccccc1 (stereo not drawn)	92.2
Cc1nc2cc3nc(-c4cccs4)cnc3cc2n1C	93.1
O=C1c2ccccc2-c2n[nH]c3cccc1c23	103
Cc1cn(-c2cc(NC(=O)c3ccc(C)c(Nc4nccc(-c5cccnc5)n4)c3)cc(C(F)(F)F)c2)cn1	110
CCN(CC)C(=O)c1ccc(Nc2nc(OCC3CCCCC3)c3[nH]cnc3n2)cc1	132
COc1cc2ncnc(Nc3ccc(O)c(Br)c3)c2cc1OC	103
Cc1cc2ncc(-c3ccccc3)nc2cc1C	104

Sample 4 — effect on: enzyme activity; action: inhibitor; tested at: 77 µM; baseline: untreated
Target: DNA polymerase theta, ATPase domain (POLQ, Homo sapiens, UniProt O75417)
Sequence of UniProt O75417 (whole entry, unmodified, looked up): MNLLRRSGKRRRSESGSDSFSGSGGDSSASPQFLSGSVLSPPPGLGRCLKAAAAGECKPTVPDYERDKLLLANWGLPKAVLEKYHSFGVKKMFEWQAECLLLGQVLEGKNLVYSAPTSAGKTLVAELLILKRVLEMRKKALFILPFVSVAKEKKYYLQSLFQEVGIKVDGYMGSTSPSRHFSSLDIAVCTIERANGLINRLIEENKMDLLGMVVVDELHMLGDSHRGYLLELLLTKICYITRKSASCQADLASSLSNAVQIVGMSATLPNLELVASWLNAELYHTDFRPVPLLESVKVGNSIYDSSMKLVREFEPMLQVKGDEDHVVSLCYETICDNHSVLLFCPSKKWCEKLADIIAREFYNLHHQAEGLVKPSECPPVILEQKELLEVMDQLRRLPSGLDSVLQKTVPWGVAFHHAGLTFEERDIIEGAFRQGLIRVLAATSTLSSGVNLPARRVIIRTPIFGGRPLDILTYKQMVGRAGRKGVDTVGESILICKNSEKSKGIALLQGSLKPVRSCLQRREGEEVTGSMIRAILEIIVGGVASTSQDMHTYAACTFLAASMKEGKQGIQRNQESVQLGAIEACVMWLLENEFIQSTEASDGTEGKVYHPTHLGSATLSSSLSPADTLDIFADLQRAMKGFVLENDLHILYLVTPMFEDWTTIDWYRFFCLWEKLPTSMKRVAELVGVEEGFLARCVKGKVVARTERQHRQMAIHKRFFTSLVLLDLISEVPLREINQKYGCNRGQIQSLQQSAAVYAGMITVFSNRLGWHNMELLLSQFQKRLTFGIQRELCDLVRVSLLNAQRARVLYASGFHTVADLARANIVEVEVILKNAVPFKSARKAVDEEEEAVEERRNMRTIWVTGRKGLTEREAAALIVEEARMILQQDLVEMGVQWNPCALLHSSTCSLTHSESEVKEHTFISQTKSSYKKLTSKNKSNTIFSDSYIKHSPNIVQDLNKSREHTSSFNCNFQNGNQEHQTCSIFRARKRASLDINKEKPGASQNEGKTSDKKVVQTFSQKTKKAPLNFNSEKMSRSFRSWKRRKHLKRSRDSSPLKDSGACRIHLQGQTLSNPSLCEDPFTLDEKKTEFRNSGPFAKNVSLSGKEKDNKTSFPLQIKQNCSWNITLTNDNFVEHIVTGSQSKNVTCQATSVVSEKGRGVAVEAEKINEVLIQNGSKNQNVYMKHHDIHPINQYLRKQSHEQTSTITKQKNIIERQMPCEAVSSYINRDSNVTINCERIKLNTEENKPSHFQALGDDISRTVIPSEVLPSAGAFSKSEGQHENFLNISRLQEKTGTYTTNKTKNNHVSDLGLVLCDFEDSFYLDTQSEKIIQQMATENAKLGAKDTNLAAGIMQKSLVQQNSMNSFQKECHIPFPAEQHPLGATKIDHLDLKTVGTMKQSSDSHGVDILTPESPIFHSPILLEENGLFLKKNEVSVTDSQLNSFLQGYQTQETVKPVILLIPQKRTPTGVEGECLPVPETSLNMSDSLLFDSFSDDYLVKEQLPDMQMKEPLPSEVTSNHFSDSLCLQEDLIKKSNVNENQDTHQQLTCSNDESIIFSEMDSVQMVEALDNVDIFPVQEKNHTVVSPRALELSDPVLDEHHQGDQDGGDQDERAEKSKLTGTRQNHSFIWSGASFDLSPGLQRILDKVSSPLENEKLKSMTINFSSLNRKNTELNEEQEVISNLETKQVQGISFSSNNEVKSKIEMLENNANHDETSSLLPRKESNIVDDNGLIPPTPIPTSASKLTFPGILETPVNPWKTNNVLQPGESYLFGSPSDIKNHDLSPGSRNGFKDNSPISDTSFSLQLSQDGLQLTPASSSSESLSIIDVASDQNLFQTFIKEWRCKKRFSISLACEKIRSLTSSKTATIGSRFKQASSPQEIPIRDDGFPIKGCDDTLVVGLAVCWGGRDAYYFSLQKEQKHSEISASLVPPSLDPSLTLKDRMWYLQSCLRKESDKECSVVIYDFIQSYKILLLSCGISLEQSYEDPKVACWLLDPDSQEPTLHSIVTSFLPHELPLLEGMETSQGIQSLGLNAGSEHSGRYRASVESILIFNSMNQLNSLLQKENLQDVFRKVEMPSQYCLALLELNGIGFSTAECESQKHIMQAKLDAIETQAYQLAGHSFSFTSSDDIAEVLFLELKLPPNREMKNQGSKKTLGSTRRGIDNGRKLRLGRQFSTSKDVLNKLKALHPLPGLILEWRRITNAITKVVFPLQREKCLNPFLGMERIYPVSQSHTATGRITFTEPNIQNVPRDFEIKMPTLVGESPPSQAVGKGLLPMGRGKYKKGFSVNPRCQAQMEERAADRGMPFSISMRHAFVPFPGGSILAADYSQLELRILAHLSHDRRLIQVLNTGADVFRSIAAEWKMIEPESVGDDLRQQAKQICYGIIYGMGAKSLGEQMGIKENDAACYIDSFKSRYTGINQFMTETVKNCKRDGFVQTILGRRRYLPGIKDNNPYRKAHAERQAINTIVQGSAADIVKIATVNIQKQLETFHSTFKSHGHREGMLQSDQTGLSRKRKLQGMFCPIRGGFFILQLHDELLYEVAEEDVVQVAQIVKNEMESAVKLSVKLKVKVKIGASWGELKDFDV
SMILES	remaining activity
CO/N=C(\C(=O)N[C@@H]1C(=O)N2C(C(=O)O)=C(COC(N)=O)CS[C@H]12)c1ccco1	98.1%
CN(C)[C@@H](CCOc1cccc2ccccc12)c1ccccc1	104%
CC(C(=O)O)c1ccc(N2Cc3ccccc3C2=O)cc1 (stereo not drawn)	88.3%
C=C(C)[C@@H]1CC[C@]2(C(=O)O)CC[C@]3(C)[C@H](CC[C@@H]4[C@@]5(C)CC[C@H](O)C(C)(C)[C@@H]5CC[C@]43C)[C@@H]12	108% and 101%
CC1(C)NC(=O)N(c2ccc([N+](=O)[O-])c(C(F)(F)F)c2)C1=O	96.1% and 105%

Repeated from above (sample 1):
SMILES	inhibition [%]
CCS(=O)(=O)c1cc2cc(C[C@](O)(CC(C)(C)c3ccc(F)cc3C(N)=O)C(F)(F)F)[nH]c2cn1	4.75
N#Cc1ccc(Nc2ccc3[nH]c(=O)[nH]c3c2)c(Cl)c1	12.6
C[C@@H]1CN(c2cc(-c3nn(C)c4ccc(OC5(C)CC5)cc34)ncn2)C[C@H](C)O1	-0.18
CNC(=O)Nc1ccc2c(c1)C1(CC2)OC(=O)N(CC(=O)N(Cc2ccc(F)cc2)[C@@H](C)C(F)(F)F)C1=O (single isomer, unassigned)	0.33
CN(C)C(=O)Cn1cc(-c2nc(C3(c4ccc(-c5cnc(N)nc5)cc4)CC3)no2)cn1	-7.33
CN(C)CC#Cc1ccc(OCCCc2sc(N3CCc4cccc(C(=O)Nc5nc6ccccc6s5)c4C3)nc2C(=O)O)c(F)c1	-4.32
CCC(=N\O)/C(C)=C/c1ccc(F)cc1	6.66
O=c1nc(-c2ccccn2)sc2ccccc12	-1.13
Cc1ccc(-c2cnc([C@@]3(O)CC[C@H](C(=O)O)C(C)(C)C3)s2)cc1Nc1cccc(C(F)(F)F)n1	-12
